Earlier results as cited in several papers.
± gives the spread as reported. Converted amounts (≈) assume the structure as drawn.
UniProt Q9BX84, sequence (whole entry, looked up): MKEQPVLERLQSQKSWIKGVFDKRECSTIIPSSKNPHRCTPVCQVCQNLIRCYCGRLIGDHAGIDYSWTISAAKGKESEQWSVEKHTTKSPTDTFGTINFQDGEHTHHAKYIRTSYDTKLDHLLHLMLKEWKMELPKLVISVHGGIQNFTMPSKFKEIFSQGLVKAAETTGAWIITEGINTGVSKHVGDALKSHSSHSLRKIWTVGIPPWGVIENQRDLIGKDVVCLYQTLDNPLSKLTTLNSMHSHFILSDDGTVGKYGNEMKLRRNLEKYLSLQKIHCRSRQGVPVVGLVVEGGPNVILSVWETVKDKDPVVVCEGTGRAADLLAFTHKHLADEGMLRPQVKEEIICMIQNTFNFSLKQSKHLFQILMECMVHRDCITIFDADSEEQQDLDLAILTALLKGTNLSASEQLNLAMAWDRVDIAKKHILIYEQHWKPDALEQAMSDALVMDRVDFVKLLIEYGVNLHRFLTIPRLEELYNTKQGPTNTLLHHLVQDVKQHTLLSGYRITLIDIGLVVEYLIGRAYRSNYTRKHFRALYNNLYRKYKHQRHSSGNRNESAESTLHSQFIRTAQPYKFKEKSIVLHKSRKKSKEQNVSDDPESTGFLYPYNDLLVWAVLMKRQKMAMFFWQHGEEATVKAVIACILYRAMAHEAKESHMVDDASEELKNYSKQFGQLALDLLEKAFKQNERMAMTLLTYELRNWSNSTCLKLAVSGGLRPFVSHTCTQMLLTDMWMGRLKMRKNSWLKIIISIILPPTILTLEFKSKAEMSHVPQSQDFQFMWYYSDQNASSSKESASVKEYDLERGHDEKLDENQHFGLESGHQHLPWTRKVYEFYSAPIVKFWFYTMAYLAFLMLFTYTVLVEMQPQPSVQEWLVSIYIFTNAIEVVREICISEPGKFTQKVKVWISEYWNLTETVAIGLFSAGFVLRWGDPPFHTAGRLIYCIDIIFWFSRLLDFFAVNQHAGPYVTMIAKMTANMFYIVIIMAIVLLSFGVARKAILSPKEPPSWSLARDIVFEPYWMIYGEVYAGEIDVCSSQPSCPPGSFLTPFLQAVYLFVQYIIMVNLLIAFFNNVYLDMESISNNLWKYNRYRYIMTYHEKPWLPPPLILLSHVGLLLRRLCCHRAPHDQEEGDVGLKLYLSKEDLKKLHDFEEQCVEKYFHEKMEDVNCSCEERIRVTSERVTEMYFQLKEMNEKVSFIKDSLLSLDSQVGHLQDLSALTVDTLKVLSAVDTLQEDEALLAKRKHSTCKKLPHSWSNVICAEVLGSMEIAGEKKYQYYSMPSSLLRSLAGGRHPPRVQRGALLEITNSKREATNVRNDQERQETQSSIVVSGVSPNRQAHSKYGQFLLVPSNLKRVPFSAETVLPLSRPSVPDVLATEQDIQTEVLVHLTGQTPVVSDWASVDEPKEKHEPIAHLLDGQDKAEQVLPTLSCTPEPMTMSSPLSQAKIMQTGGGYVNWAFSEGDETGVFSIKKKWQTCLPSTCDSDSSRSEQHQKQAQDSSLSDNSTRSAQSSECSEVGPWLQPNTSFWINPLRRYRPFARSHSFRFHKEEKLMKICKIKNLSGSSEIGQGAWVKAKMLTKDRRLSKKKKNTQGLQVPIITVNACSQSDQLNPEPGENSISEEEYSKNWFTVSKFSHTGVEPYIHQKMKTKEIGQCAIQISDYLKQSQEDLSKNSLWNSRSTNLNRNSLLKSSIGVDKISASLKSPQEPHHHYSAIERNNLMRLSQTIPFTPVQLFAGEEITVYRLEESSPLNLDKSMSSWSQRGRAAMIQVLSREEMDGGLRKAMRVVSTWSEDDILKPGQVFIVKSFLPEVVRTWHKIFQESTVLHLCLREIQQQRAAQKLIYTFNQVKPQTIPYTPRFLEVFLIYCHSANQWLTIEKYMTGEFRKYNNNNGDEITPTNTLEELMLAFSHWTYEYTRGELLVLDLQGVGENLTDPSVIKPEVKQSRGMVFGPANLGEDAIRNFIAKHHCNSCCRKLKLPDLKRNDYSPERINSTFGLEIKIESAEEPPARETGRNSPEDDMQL

SMILES = CCCOc1ccnc2[nH]cc(-c3ccnc(N)n3)c12; target or system = CDK2; endpoint = IC50; value = 7 nM
SMILES = CN(CCN)Cc1csc(-c2ccc(C(=N)N)nc2)n1; target or system = PRMT3; endpoint = IC50; value = 57600 nM
SMILES = CS(=O)(=O)c1ccc(-c2c(-c3ccccc3)[nH]c3ccccc23)cc1; target or system = COX-2; endpoint = IC50; value = 0.22 nM
SMILES = COc1ccc2c(c1)CCC(NC(=O)Nc1cccc3cnccc13)C2Cc1ccc(C(F)(F)F)cc1 (stereo not drawn); target or system = TRPV1; test = calcium flux, antagonist; test system = HEK293; setting = with: capsaicin; endpoint = IC50; value = 2 nM
SMILES = O=C1C[C@@H](c2ccc(O)cc2)Oc2cc(O)cc(O)c21; target or system = MAO-B (rat); test = inhibitor; endpoint = IC50; value = 288000 nM
SMILES = COC1CC2CCC(C)C(O)(O2)C(=O)C(=O)N2CCCCC2C(=O)OC(C(C)CC2CCC(OCCO)C(OC)C2)CC(=O)C(C)/C=C(\C)C(O)C(OC)C(=O)C(C)CC(C)/C=C/C=C/C=C/1C (stereo not drawn); target or system = mTOR; test = cell-free; setting = with: FKBP12; endpoint = IC50; value = 1.6 to 2.4 nM
SMILES = O=C(NCCc1ccc(C(F)(F)F)cc1)Nc1cccc2cnccc12; target or system = TRPV1; test = calcium flux, antagonist; test system = HEK293; setting = with: capsaicin; endpoint = IC50; value = 19 nM
SMILES = C/C(=N\NC(=O)c1cccc(S(=O)(=O)N2CCN(C)CC2)c1)c1cc(Cl)ccc1O; target or system = LSD1; test = reversible inhibitor; endpoint = IC50; value = ~31 nM
SMILES = CN1CCC(c2cc(-c3ccncc3)c(-c3ccc(F)cc3)[nH]2)CC1; target or system = Plasmodium falciparum PKG; test = kinase activity, inhibitor; setting = with: peptide substrate; endpoint = IC50; value = 8.53 nM
SMILES = NC(=O)C(NC1CCC(c2c[nH]c3ccccc23)CC1)C1CCN(C(=O)/C=C/c2ccc3c(c2)OCCO3)CC1 (stereo not drawn); target or system = CCR2; setting = 3D-QSAR training set; endpoint = IC50; value = 602 nM
SMILES = NCCC(Oc1ccc(C(F)(F)F)cc1)c1ccccc1 (stereo not drawn); target or system = sigma-2 receptor; setting = literature value; endpoint = IC50; value = 35000 nM
SMILES = CC(C)=CCC/C(C)=C/CNCCNC1C2CC3CC(C2)CC1C3 (stereo not drawn); target or system = Staphylococcus aureus farnesyl diphosphate synthase; test = enzyme activity, inhibitor; endpoint = IC50; value = ≥ 50000 nM
SMILES = C[C@H](NC(=O)[C@H](CC(=O)NCC(C)(C)C)NC(=O)C(=O)c1c[nH]c2ccccc12)C(=O)NCc1ccc(F)cc1F; target or system = 20S proteasome, human erythrocyte; test = chymotrypsin-like activity, inhibitor; endpoint = IC50; value = 2.4 nM
SMILES = Oc1ccc(/C=C/c2cc(O)cc(O)c2)cc1; target or system = cyclooxygenase; endpoint = IC50; value = 1100 nM
SMILES = CCCCCCCCCCOC(=O)/C=C/c1ccc(O)c(O)c1; target or system = xanthine oxidase; test = inhibitor; endpoint = IC50; value = 10000 ± 1000 nM
SMILES = FC(F)(F)c1ccc(Nc2nc(NCC3CC3)nc3sc(Nc4c(Cl)cccc4Cl)nc23)cc1; target or system = TRPV1; test = calcium flux, antagonist; test system = HEK293; setting = with: capsaicin; endpoint = IC50; value = 3 nM
SMILES = COc1cc2ccc(=O)oc2cc1O[C@@H]1O[C@H](CO[C@@H]2OC[C@](O)(CO)[C@H]2O)[C@@H](O)[C@H](O)[C@H]1O; target or system = carbonic anhydrase IX; endpoint = IC50; value = ~90 nM
SMILES = CN(C)CCCN1c2ccccc2CCc2ccccc21; target or system = sigma-2 receptor; setting = literature value; endpoint = IC50; value = 2000 nM
SMILES = COc1cccc(-c2cc(F)ccc2[C@H]2Cc3nc(N)nc(C)c3C(=O)N2)n1; target or system = Hsp90β; test = inhibitor; endpoint = IC50; value = 0.8 nM
SMILES = CC(C)(C)c1ccc(NC(=O)c2ccc(-c3ccccn3)cc2)cc1; target or system = TRPV1; test = calcium flux, antagonist; test system = HEK293; setting = with: capsaicin; endpoint = IC50; value = 11 nM
SMILES = COc1cc(/C=C/C(=O)CC(=O)/C=C/c2ccc(O)c(OC)c2)ccc1O; target or system = xanthine oxidase; test = inhibitor; endpoint = IC50; value = 26000 ± 880 nM
SMILES = CO[C@@H]1COCC[C@@H]1N[C@@H]1C[C@H]2CCC[C@@]2(C(=O)N2C[C@@H]3C[C@H]2CN3c2ccc(C#N)c(C(F)(F)F)c2)C1; target or system = CCR2; setting = 3D-QSAR training set; endpoint = IC50; value = 55.3 nM
SMILES = COc1cc2ncnc(Nc3ccc(Oc4ccccc4)cc3)c2cc1OC; target or system = Src kinase; endpoint = IC50; value = 44 nM
SMILES = CCC(=O)NS(=O)(=O)c1ccc(-c2c(-c3ccccc3)noc2C)cc1; target or system = NR4A3 (NOR-1); test = inverse agonist, cellular; endpoint = IC50; value = 25000 ± 4000 nM
SMILES = COc1ccc(CNc2c(CO)cnc3c(C4CC4)cc(C#N)cc23)cc1Cl; target or system = PDE3; test = inhibitor; endpoint = IC50; value = > 10000 nM
SMILES = CC(C)[C@H](N)C(=O)OCCOCn1cnc2c(=O)[nH]c(N)nc21; target or system = PEPT1; test = Gly-Sar uptake; endpoint = IC50; value = 894000 nM
SMILES = CN(C)C(=O)CCc1nc(-c2ccccc2)c(-c2ccccc2)o1; target or system = NR4A3 (NOR-1); test = inverse agonist, cellular; endpoint = IC50; value = 39000 ± 5000 nM
SMILES = CC1(C)CC[C@]2(C(=O)O)CC[C@]3(C)C(=CC[C@@H]4[C@@]5(C)C[C@@H](O)[C@H](O)C(C)(C)[C@@H]5CC[C@]43C)[C@@H]2C1; target or system = PTP1B; endpoint = IC50; value = 3210 nM
SMILES = CC(C)(C)c1ccc(Nc2ncnc3sc(Nc4c(Cl)cccc4Cl)nc23)cc1; target or system = TRPV1; test = calcium flux, antagonist; test system = HEK293; setting = with: capsaicin; endpoint = IC50; value = 11 nM
SMILES = CCN1CCN(c2cc(N3CCN(CC)CC3)nc(NCCNc3ccnc4cc(Cl)ccc34)n2)CC1; target or system = NR4A2; test = binding, radioligand binding; endpoint = IC50; value = 50 nM
SMILES = O=C(O)c1cc(O)c(O)c(O)c1; target or system = xanthine oxidase; test = inhibitor; endpoint = IC50; value = 200000 ± 320 nM
SMILES = CC(C)(C)c1ccc(C2=NC(=Cc3cccs3)C(=O)O2)cc1; target or system = pendrin; test = inhibitor; setting = concentration not given; endpoint = IC50; value = 4700 nM
SMILES = CC1(C)S[C@@H]2[C@H](NC(=O)[C@H](N)c3ccccc3)C(=O)N2[C@H]1C(=O)O; target or system = Escherichia coli; test system = clinical isolate RKI-No_330/16; endpoint = MIC; value = > 16 µg/mL
SMILES = O=C(O)c1cc(N2N=C(C(F)(F)F)/C(=C/c3ccc(-c4ccccc4)o3)C2=O)ccc1Cl; target or system = MAO-B; test = inhibitor; endpoint = IC50; value = 30600 nM
SMILES = COc1ccc(CC(=O)NC(NC(=NC#N)Nc2cccc3ncccc23)C(C)(C)C)cc1OC (stereo not drawn); target or system = P2X7 (mouse); endpoint = IC50; value = 676 nM
SMILES = Cn1c2c(c3cc(O)ccc31)C(CNC(=O)c1ccc(OC(F)(F)F)cc1)CCC2 (stereo not drawn); target or system = TRPV1; test = calcium flux, antagonist; test system = HEK293; setting = with: capsaicin; endpoint = IC50; value = 23 nM
SMILES = C[C@H](NC(=O)[C@H](CC(=O)NCC(C)(C)C)NC(=O)c1ccc(C(=O)NO)cc1)C(=O)NCc1ccccc1; target or system = proteasome; test = chymotrypsin-like activity, inhibitor; test system = SEM; endpoint = IC50; value = 394 nM
SMILES = O=S(=O)(NCCNCC=Cc1ccc(Br)cc1)c1cccc2cnccc12; target or system = PKA catalytic subunit alpha; test = fluorescence-TLC; setting = with: 100 µM ATP; endpoint = IC50; value = 100 nM
SMILES = Fc1ccc([C@@H]2CCNC[C@H]2COc2ccc3c(c2)OCO3)cc1; target or system = sigma-2 receptor; setting = literature value; endpoint = IC50; value = 23000 nM
SMILES = CCN(CC)CCCCNc1ncc2cc(-c3cc(OC)cc(OC)c3)c(NC(=O)NC(C)(C)C)nc2n1; target or system = ErbB4; test = inhibitor; endpoint = IC50; value = > 1000 nM
SMILES = O=C(Nc1ccc2c(c1)NC(=O)C(CCO)O2)C1CCN(c2cc(F)c(F)c(F)c2)CC1 (stereo not drawn); target or system = TRPV1; test = calcium flux, antagonist; test system = HEK293; setting = with: capsaicin; endpoint = IC50; value = 5 nM
SMILES = CC(=O)N1CCc2c(c(N3CCCc4cc(-c5cnn(C)c5)c(C(F)F)cc43)nn2C2CCOCC2)C1; target or system = PI3Kγ; endpoint = IC50; value = 158 nM
SMILES = Nc1cc(C(F)(F)F)c(-c2nc(N3CCOCC3)nc(N3CCOCC3)n2)cn1; target or system = TRPM6 (Homo sapiens, UniProt Q9BX84); test = enzyme activity; setting = 10 µM; scale = baseline: untreated; endpoint = remaining activity; value = 85%
SMILES = CN(C)CCC=C1c2ccccc2CCc2ccccc21; target or system = Kv7.2/7.3 channel; test = inhibitor; endpoint = IC50; value = 10000 nM
SMILES = CN(CCCNC(=O)CNc1cccc2c1C(=O)N(C1CCC(=O)NC1=O)C2=O)CCCC(=O)N1CCC[C@@H](n2nc(-c3ccc(Oc4ccccc4)cc3)c3c(N)ncnc32)C1 (stereo partly drawn); target or system = BTK; test = target engagement, NanoBRET; test system = HEK-293T expressing BTK-NanoLuc; setting = 2 h, with: tracer 1 µM; endpoint = IC50; value = 1270 nM
SMILES = N=C(NCCCSC[C@H]1O[C@@H](n2cnc3c(N)ncnc32)[C@H](O)[C@@H]1O)Nc1ccccc1Br; target or system = CARM1 (PRMT4); test = enzyme activity, inhibitor; endpoint = IC50; value = 5.05 nM
SMILES = Nc1ncnc2c1ncn2[C@@H]1O[C@H](COP(=O)(O)CP(=O)(O)OP(=O)(O)O)[C@@H](O)[C@H]1O; target or system = P2X purinergic receptor; test = radioligand binding; endpoint = IC50; value = 82 nM
SMILES = O=S(=O)(Nc1cc(Cl)ccc1SCc1cccc(O)c1)c1cc2ccccc2o1; target or system = CCR2; setting = 3D-QSAR training set; endpoint = IC50; value = 76 nM
SMILES = CCC(C)(C)c1ccc(CCC(=O)Nc2cccc3cnccc23)cc1; target or system = TRPV1; test = calcium flux, antagonist; test system = HEK293; setting = with: capsaicin; endpoint = IC50; value = 13 nM
SMILES = CNC(C)C1CCC(N)C(OC2C(N)CC(N)C(OC3OCC(C)(O)C(NC)C3O)C2O)O1 (stereo not drawn); target or system = Enterobacter cloacae; test system = clinical isolate RKI-No_571/13; endpoint = MIC; value = 4 µg/mL (≈ 8.38 µM)
SMILES = C[C@@H]1O[C@@H](OC[C@H]2O[C@@H](Oc3c(-c4ccc(O)c(O)c4)oc4cc(O)cc(O)c4c3=O)[C@H](O)[C@@H](O)[C@@H]2O)[C@H](O)[C@H](O)[C@H]1O; target or system = Zika virus NS2B-NS3 protease; test = enzyme activity, inhibitor; setting = pH 7.0; endpoint = IC50; value = 104000 ± 2900 nM
SMILES = COc1ccc2cc3[n+](cc2c1OC)CCc1cc2c(cc1-3)OCO2; target or system = PTP1B; endpoint = IC50; value = ~22000 nM
SMILES = CN(C)CCC=C1c2ccccc2CCc2ccccc21; target or system = 5-HT4 receptor; endpoint = IC50; value = 7.31 nM
SMILES = CN(C)CCCC1(c2ccc(F)cc2)OCc2cc(C#N)ccc21 (stereo not drawn); target or system = sigma-2 receptor; setting = literature value; endpoint = IC50; value = 5000 nM

Some of these lines once more:
SMILES = O=S(=O)(NCCNCC=Cc1ccc(Br)cc1)c1cccc2cnccc12; target or system = PKA catalytic subunit alpha; test = fluorescence-TLC; setting = with: 100 µM ATP; endpoint = IC50; value = 100 nM
SMILES = Fc1ccc([C@@H]2CCNC[C@H]2COc2ccc3c(c2)OCO3)cc1; target or system = sigma-2 receptor; setting = literature value; endpoint = IC50; value = 23000 nM
SMILES = CCN(CC)CCCCNc1ncc2cc(-c3cc(OC)cc(OC)c3)c(NC(=O)NC(C)(C)C)nc2n1; target or system = ErbB4; test = inhibitor; endpoint = IC50; value = > 1000 nM
SMILES = O=C(Nc1ccc2c(c1)NC(=O)C(CCO)O2)C1CCN(c2cc(F)c(F)c(F)c2)CC1 (stereo not drawn); target or system = TRPV1; test = calcium flux, antagonist; test system = HEK293; setting = with: capsaicin; endpoint = IC50; value = 5 nM
SMILES = CC(=O)N1CCc2c(c(N3CCCc4cc(-c5cnn(C)c5)c(C(F)F)cc43)nn2C2CCOCC2)C1; target or system = PI3Kγ; endpoint = IC50; value = 158 nM
SMILES = Nc1cc(C(F)(F)F)c(-c2nc(N3CCOCC3)nc(N3CCOCC3)n2)cn1; target or system = TRPM6 (Homo sapiens, UniProt Q9BX84); test = enzyme activity; setting = 10 µM; scale = baseline: untreated; endpoint = remaining activity; value = 85%
SMILES = CN(C)CCC=C1c2ccccc2CCc2ccccc21; target or system = Kv7.2/7.3 channel; test = inhibitor; endpoint = IC50; value = 10000 nM
SMILES = CN(CCCNC(=O)CNc1cccc2c1C(=O)N(C1CCC(=O)NC1=O)C2=O)CCCC(=O)N1CCC[C@@H](n2nc(-c3ccc(Oc4ccccc4)cc3)c3c(N)ncnc32)C1 (stereo partly drawn); target or system = BTK; test = target engagement, NanoBRET; test system = HEK-293T expressing BTK-NanoLuc; setting = 2 h, with: tracer 1 µM; endpoint = IC50; value = 1270 nM
